Measured values from different studies.
Parts stem from different laboratories: compare values within a part only. Substitutions count along the parent as printed.

Series 1
Molecule: PhoQ, residues 284 288 289 292 302 303 QWGLFV
Method: Sort-seq
Item: YFP reporter
Sample: E. coli
Setting: PhoQ-PhoP variant library
Together with: 10 µM Mg2+
Baseline: high Mg2+ state
Direction: higher = stronger signaling
PhoP, residues 12 14 15 18 19 LHTVL (Escherichia coli, UniProt P23836) — fold induction: 19.5.
PhoP, residues 12 14 15 18 19 TQAML (Escherichia coli, UniProt P23836) — fold induction: 22.8.
For PhoP, residues 12 14 15 18 19 NQCAL (Escherichia coli, UniProt P23836): fold induction read 38.6.

Series 2
Target: ABI1, truncated, D143A, DHFR fusion (Arabidopsis thaliana)
Method: DHFR PCA, deep sequencing
Sample: yeast
Setting: methotrexate growth selection, single substitutions
Together with: (+)-ABA 58 µM
Baseline: wild-type fitted maximum
Direction: higher = stronger binding
Starting sequence: PYL1, truncated, DHFR fusion (Arabidopsis thaliana); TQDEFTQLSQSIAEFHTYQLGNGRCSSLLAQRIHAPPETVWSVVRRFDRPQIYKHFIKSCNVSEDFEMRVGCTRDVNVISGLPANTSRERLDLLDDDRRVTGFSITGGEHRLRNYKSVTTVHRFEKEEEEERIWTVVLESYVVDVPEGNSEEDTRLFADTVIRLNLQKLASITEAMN; partner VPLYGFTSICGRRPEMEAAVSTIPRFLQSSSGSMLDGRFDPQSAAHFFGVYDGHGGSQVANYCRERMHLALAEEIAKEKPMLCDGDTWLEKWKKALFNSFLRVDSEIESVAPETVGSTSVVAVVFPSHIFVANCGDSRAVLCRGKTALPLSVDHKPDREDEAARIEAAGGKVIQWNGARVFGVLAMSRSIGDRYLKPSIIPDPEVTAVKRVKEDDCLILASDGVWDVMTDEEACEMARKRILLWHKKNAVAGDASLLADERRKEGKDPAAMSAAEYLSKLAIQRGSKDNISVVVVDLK
Under “relative binding score”, `V76D` is recorded as 0.158%.
`E109N`: “relative binding score” 94.6%.
`D159K` — result for “relative binding score”: 20.9%.
`H55I` — result for “relative binding score”: 82.8%.
For `R132E`, “relative binding score” read 106%.
For `L8M`, “relative binding score” read 83.9%.
For `E64N`, “relative binding score” read 84.6%.
Under “relative binding score”, `V78H` is recorded as 13.8%.
`A175T`: “relative binding score” 86.7%.
`M68E`: “relative binding score” 59.6%.
`I12H`: “relative binding score” 39.1%.
`K168P`: “relative binding score” -7.34%.
For `R45L`, “relative binding score” read -7.29%.
Under “relative binding score”, `G107S` is recorded as 69.9%.
`S80Q` — result for “relative binding score”: 16%.
For `Q2V`, “relative binding score” read 85.2%.
`Y18Q` — result for “relative binding score”: 71.9%.

Series 3
Target: CCNE1, cyclin fold, Cln2 fusion (human)
Method: yeast growth competition, sequencing
Sample: yeast
Setting: weak parent motif
Baseline: not given
Direction: higher = stronger binding
Starting sequence: SLBP docking peptide (human); ARYKRKLLINDFG
`AQYKRKLLINDFG [R2Q]`: “normalised enrichment score” 1.4.
`ARYKRKLSINDFG [L8S]`: “normalised enrichment score” -0.178.
Under “normalised enrichment score”, `ARYKRKLLVNDFG [I9V]` is recorded as 0.588.
`ARYYRKLLINDFG [K4Y]` — result for “normalised enrichment score”: 0.155.
`ARYKRKLLINIFG [D11I]`: “normalised enrichment score” 1.41.
Under “normalised enrichment score”, `ARYKGKLLINDFG [R5G]` is recorded as -0.0136.
`ARYKRKLMINDFG [L8M]`: “normalised enrichment score” 0.895.
`ARYKDKLLINDFG [R5D]`: “normalised enrichment score” 0.109.
`LRYKRKLLINDFG [A1L]`: “normalised enrichment score” -0.1.
For `ARYKRKYLINDFG [L7Y]`, “normalised enrichment score” read 0.766.
Under “normalised enrichment score”, `ARYKRKLLINVFG [D11V]` is recorded as 1.04.
`ARYKRKLLIPDFG [N10P]`: “normalised enrichment score” 0.403.
`ARYKRWLLINDFG [K6W]`: “normalised enrichment score” 1.47.
For `ARYKTKLLINDFG [R5T]`, “normalised enrichment score” read 0.88.
`ARYKRKLLINWFG [D11W]` — result for “normalised enrichment score”: 0.706.
`ARYKRKLLINDTG [F12T]`: “normalised enrichment score” -0.405.
Under “normalised enrichment score”, `ARYKRKLLINDFC [G13C]` is recorded as 1.17.
Under “normalised enrichment score”, `ERYKRKLLINDFG [A1E]` is recorded as 0.335.

Series 4
Target: CREBL2, bZIP domain (human)
Method: DHFR protein complementation
Sample: yeast
Setting: single substitutions, most at no-binding floor
Baseline: wild-type JUN-FOS pair
Direction: higher = stronger binding
Starting sequence: JUN, bZIP domain (human); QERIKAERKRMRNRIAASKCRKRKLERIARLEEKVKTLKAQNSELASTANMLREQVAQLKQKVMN; partner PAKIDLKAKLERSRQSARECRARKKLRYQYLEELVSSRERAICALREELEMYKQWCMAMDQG
With `I28S` the binding fitness was -1.19 natural log.
`A49E` gave a binding fitness of -1.51 natural log.
With `A57E` the binding fitness was -1.5 natural log.
`E44Y` gave a binding fitness of -1.51 natural log.
For `S47H`, the binding fitness was -1.45 natural log.
The binding fitness of `L52E` is reported as -1.57 natural log.
For `L45Y`, the binding fitness was -1.52 natural log.
`I28P` gave a binding fitness of -1.53 natural log.
`L59R` gave a binding fitness of -1.48 natural log.
With `S47G` the binding fitness was -1.45 natural log.
`A49W` has a binding fitness of -1.51 natural log.
For `S47C`, the binding fitness was -1.44 natural log.
`L31C` gave a binding fitness of -1.56 natural log.
With `T37H` the binding fitness was -1.34 natural log.
`E44G` gave a binding fitness of -1.42 natural log.

For quick reference, copied from above (series 3):
`ARYKRKLMINDFG [L8M]`: “normalised enrichment score” 0.895.
For `ARYKTKLLINDFG [R5T]`, “normalised enrichment score” read 0.88.
`AQYKRKLLINDFG [R2Q]`: “normalised enrichment score” 1.4.
For `ARYKRKYLINDFG [L7Y]`, “normalised enrichment score” read 0.766.
`ARYKRKLLIPDFG [N10P]`: “normalised enrichment score” 0.403.
`ARYKRKLLINIFG [D11I]`: “normalised enrichment score” 1.41.
